Assay results of several laboratories.
Compare with care: the assays were run in different laboratories. Several values in a cell are separate wells, animals, samples, runs or records. ± gives the spread as reported.

COc1ccc(CCC2CCCC(CCc3ccc(OC)cc3)N2C[C@@H](O)CO)cc1.Cl (stereo in doubt)
action potential amplitude change (rabbit Purkinje fibres; 0.03 µM, cycle length 0.5 s; baseline: baseline): 2.4 ± 3.8 mV

CC(C)[C@@H]1NC(=O)CNC(=O)[C@H](CC(N)=O)NC(=O)[C@H](CCCNC(=N)N)NC(=O)[C@H](Cc2ccc(O)cc2)NC(=O)[C@H](C(C)C)NC(=O)[C@@H](NC(=O)[C@@H](NC(=O)[C@H](CC(N)=O)NC(=O)[C@H](Cc2c[nH]c3ccccc23)NC(=O)[C@H](C)NC(=O)[C@H](Cc2ccccc2)NC(=O)CN)C(C)C)CSSC[C@@H](C(=O)N[C@@H](Cc2cnc[nH]2)C(=O)N[C@@H](CCCNC(=N)N)C(=O)N[C@@H](CCCNC(=N)N)C(=O)N[C@@H](C)C(=O)N[C@@H](CC(N)=O)C(N)=O)NC(=O)[C@H](C(C)C)NC(=O)[C@H](CCCNC(=N)N)NC1=O
plateletcrit (ICR mice, blood; intraperitoneal, 10 mg/kg, day 5): 0.02%

O=c1ccc2ncc(=O)n3c2n1C[C@H]3CN1CCC(NCc2cc3c(cn2)OCCC3)CC1
half-life (healthy human volunteers, plasma; oral, 1500 mg single dose, geometric mean, alone): 10.9 h

C[C@@H](NC(=O)N1C(=O)[C@H](Cc2ccnc(N)c2)[C@H]1C(=O)O)C1CCCCC1
incidence of hypokalemia (healthy adult Chinese volunteers; continuous intravenous infusion, 2.25 mg/kg/h, 5-day infusion, CTCAE 5.0 grading): 0%

C[C@@H]1OC(=O)NN=C1c1ccc(-c2ccc(F)cc2)c(C(F)(F)F)c1
patients with adverse event (phase I trial, refers to: Cough all grades; human patients; 20 mg loading then 1 mg daily): 50%

Cc1ccc(F)c2cc(C(=O)N[C@@H]3CCC[C@H](N4CC[C@H](N(C)S(C)(=O)=O)C4)C3)[nH]c12
plasma concentration (CD1 mouse, plasma; intravenous, 1 mg/kg, 0.167 h): 220 ng/mL

O=c1oc2c(O)c(O)cc3c(=O)oc4c(O)c(O)cc1c4c23
spleen weight (subacute oral toxicity; BALB/c mice; oral, 1000 mg/kg/day, 28 days): 0.085 g

C[C@]1(CO)Cc2ncn(-c3ccc(C#N)c(Cl)c3)c2C(=O)O1
subjects with drug-related somnolence (human; 40 mg multiple doses, fasted): 0%

O=S(=O)(Nc1ccccc1)c1ccc(NC(=S)Nc2ccccc2)cc1
cholesterol level (male mouse, blood; oral, 5 mg/kg daily, 14 days): 217 mg/dL

O=[N+]([O-])c1ccc2c(c1)S(=O)(=O)C=C2
CD4+ cells (flow cytometry; male C57BL/6 mice, spleen; i.p., 10 mg/kg, 8 days; baseline: CD45+ cells): 16.9%

COc1cc2c(Oc3ccc4[nH]c(C)cc4c3F)ccnc2cc1OCC1(N)CC1
grade 1 or 2 sinus tachycardia (paediatric recurrent refractory sarcoma; 8 mg/kg): 13.3%

COC(=O)C1=CCCN(C)C1
maximum tolerated dose (chronic toxicity; nude mouse; intraperitoneal): 50 mg/kg/day

C=CC(=O)N1CC[C@H](n2nc(C#Cc3cc(OC)cc(OC)c3)c3c(N)ncnc32)C1
adverse drug reaction incidence (patients with advanced solid tumours; oral, dose not given, Hyperphosphatemia, any grade, QD, added: sevelamer hydrochloride): 100%

O=C(Nc1ccccc1)C1CCN(C(=O)Oc2cccnc2)CC1
change in Colors score (psychotropic effects VAS; healthy women; 20 mg; baseline: pre-dose baseline, direction not given): 0.1

CC(C)Nc1ccnc(Nc2cccc(-c3cccnc3)c2)n1
blood chemistry (refers to: BUN; mouse, blood; intraperitoneal, 10 mg/kg): 24.3 mg/dL

CN1CC[C@@H](c2c(O)cc(O)c3c(=O)cc(-c4ccc(C(F)(F)F)cc4Cl)oc23)[C@@H]1CO
patients with adverse event (refers to: Neutropenia; relapsed AML; oral, 100 mg, grade 3-4, intermittent dosing): 0%

CC[C@H](C)[C@H](NC(=O)[C@H](Cc1ccccc1)NC(=O)[C@H](CCC(=O)O)NC(=O)[C@H](CCCNC(=N)N)NC(=O)[C@H](C)NC(=O)[C@H](C)NC(=O)[C@H](CCC(N)=O)NC(=O)[C@H](CCC(=O)O)NC(=O)[C@H](CCC(=O)O)NC(=O)[C@H](CC(C)C)NC(=O)[C@H](Cc1ccc(O)cc1)NC(=O)[C@H](CO)NC(=O)[C@H](CO)NC(=O)[C@@H](NC(=O)[C@H](CC(=O)O)NC(=O)[C@H](CO)NC(=O)[C@@H](NC(=O)[C@H](Cc1ccccc1)NC(=O)[C@@H](NC(=O)CNC(=O)[C@H](CCC(=O)O)NC(=O)[C@H](C)NC(=O)CCc1cnc[nH]1)[C@@H](C)O)[C@@H](C)O)C(C)C)C(=O)N[C@@H](C)C(=O)N[C@@H](Cc1c[nH]c2ccccc12)C(=O)N[C@@H](CC(C)C)C(=O)N[C@H](C(=O)N[C@@H](CCCNC(=N)N)C(=O)NCC(=O)N[C@@H](CCCNC(=N)N)C(=O)N[C@@H](CCCCNC(=O)COCCOCCNC(=O)COCCOCCNC(=O)CC[C@H](NC(=O)CCCCCCCCCCCCCCCCC(=O)O)C(=O)O)C(=O)NCC(=O)NCC(=O)N[C@@H](CO)C(=O)N[C@@H](CCCCNC(=O)[C@H](CCCCNC(=O)[C@H](CCCCNc1c(NCCCCCN(O)C(=O)CCC(=O)NCCCCCN(O)C(=O)CCC(=O)NCCCCCN(O)C(C)=O)c(=O)c1=O)Nc1c(NCCCCCN(O)C(=O)CCC(=O)NCCCCCN(O)C(=O)CCC(=O)NCCCCCN(O)C(C)=O)c(=O)c1=O)NC(=O)[C@H](CCCCNc1c(NCCCCCN(O)C(=O)CCC(=O)NCCCCCN(O)C(=O)CCC(=O)NCCCCCN(O)C(C)=O)c(=O)c1=O)Nc1c(NCCCCCN(O)C(=O)CCC(=O)NCCCCCN(O)C(=O)CCC(=O)NCCCCCN(O)C(C)=O)c(=O)c1=O)C(=O)O)C(C)C [zirconium-89 labelled]
tissue uptake (ex vivo gamma counting; male Sprague-Dawley rats, duodenum; intravenous, 1 nmol, 24 h): 0.411 %ID/g

CC[C@H](C)[C@H](NC(=O)[C@H](CCCCN)NC(=O)[C@H](CCC(=O)O)NC(=O)[C@H](CCCCN)NC(=O)[C@H](CO)NC(=O)[C@H](CCCCN)NC(=O)[C@H](CCCNC(=N)N)NC(=O)[C@H](Cc1ccccc1)NC(=O)[C@H](Cc1ccccc1)NC(=O)[C@H](CC(=O)O)NC(=O)CNC(=O)[C@H](CC(C)C)NC(=O)[C@@H](N)CC(C)C)C(=O)NCC(=O)N[C@@H](CCCCN)C(=O)N[C@@H](CCC(=O)O)C(=O)N[C@@H](Cc1ccccc1)C(=O)N[C@@H](CCCCN)C(=O)N[C@@H](CCCNC(=N)N)C(=O)N[C@H](C(=O)N[C@H](C(=O)N[C@@H](CCC(N)=O)C(=O)N[C@@H](CCCNC(=N)N)C(=O)N[C@H](C(=O)N[C@@H](CCCCN)C(=O)N[C@@H](CC(=O)O)C(=O)N[C@@H](Cc1ccccc1)C(=O)N[C@@H](CC(C)C)C(=O)N[C@@H](CCCNC(=N)N)C(=O)N[C@@H](CC(N)=O)C(=O)N[C@@H](CC(C)C)C(=O)N[C@H](C(=O)N1CCC[C@H]1C(=O)N[C@@H](CCCNC(=N)N)C(=O)N[C@H](C(=O)N[C@@H](CCC(=O)O)C(=O)N[C@@H](CO)C(=O)O)[C@@H](C)O)C(C)C)[C@@H](C)CC)C(C)C)[C@@H](C)CC
remaining intact peptide (LC-MS; buffer with trypsin; 40 µM, 20 min, pH 7.5, 37 °C; baseline: 0 h): 8.7% and 8.81% and 10.8%

CC(=O)c1c(C)c2cnc(Nc3ccc(C4CCN(CCS(C)(=O)=O)CC4)cn3)nc2n(C2CCCC2)c1=O
Tmax (human, plasma; oral, 25 mg once daily, day 21, multiple doses): 1.17 h

O=C1Nc2cc3[nH]nc(-c4ccncc4)c3cc2CN1Cc1ccccc1
patients with blurred vision (CTCAE v4.03; advanced solid tumour patients; intravenous, 7.2 mg/kg): 33%

Cc1sc2c(c1C)C(c1ccc(Cl)cc1)=N[C@@H](CC(=O)Nc1ccc(O)cc1)c1nnc(C)n1-2
AUC(0-last) (Crl:CD1(ICR) mice, female, brain; intravenous, 5 µmol/kg): 0.0479 µM·h

COc1cc(C(=O)NC2CCN(C)CC2)c(F)cc1Nc1ncc(C(F)(F)F)c(Oc2cccc3c2C(=O)N(C)C3)n1
fraction excreted in urine (0-24 h) (human patients, urine; oral, 300 mg single dose, geometric mean; baseline: dose): 6.48%

Oc1ccc(Cl)c(-c2cc(Cl)c(Cl)cc2Cl)c1Cl
enantiomeric fraction (enantioselective gas chromatography; racemized sample; column temperature 170 °C): 0.5

Cc1ccc2cc(N3CCC4(O)C(=O)c5cc(C)c(C)cc5N=C34)ccc2n1 (centres unmarked)
dendritic spine density (mouse, M1, PrL, S1BF, CA1, BLA; intraperitoneal, 20 mg/kg): no effect

C[C@@H]1NC(=O)[C@H](CCCCNC(=O)CO/N=C/C(=O)NCCCC[C@@H]2NC(=O)[C@@H](Cc3ccccc3)NC(=O)[C@H](CC(=O)O)NC(=O)CNC(=O)[C@H](CCCNC(=N)N)NC2=O)NC(=O)CNC(=O)[C@@H]2CCCN2C(=O)[C@H](CCCCNC(=O)CO/N=C/C(=O)NCCCC[C@@H]2NC(=O)[C@@H](Cc3ccccc3)NC(=O)[C@H](CC(=O)O)NC(=O)CNC(=O)[C@H](CCCNC(=N)N)NC2=O)NC(=O)[C@H](CCCCNC(=O)[C@H](CCCCN)NC(=O)[C@H](Cc2ccccc2)NC(=O)CNC(=O)CN2CCCNCCNCCCNCC2)NC(=O)[C@H](CCCCNC(=O)CO/N=C/C(=O)NCCCC[C@@H]2NC(=O)[C@@H](Cc3ccccc3)NC(=O)[C@H](CC(=O)O)NC(=O)CNC(=O)[C@H](CCCNC(=N)N)NC2=O)NC(=O)CNC(=O)[C@@H]2CCCN2C(=O)[C@H](CCCCNC(=O)CO/N=C/C(=O)NCCCC[C@@H]2NC(=O)[C@@H](Cc3ccccc3)NC(=O)[C@H](CC(=O)O)NC(=O)CNC(=O)[C@H](CCCNC(=N)N)NC2=O)NC1=O [copper-64 labelled]
tissue uptake (normal mice, liver; intravenous, 0.74 MBq, 24 h post-injection): 27.1 ± 2.22 %ID/g

[2H]C([2H])([18F])[C@]([2H])(N)C(=O)O
blood half-life (dynamic PET; U-87 MG tumour-bearing mice, blood): 44.4 s

CC[C@H](C)[C@H](NC(=O)[C@H](C)NC(=O)[C@H](CCCCN)NC(=O)[C@H](CC(C)C)NC(=O)[C@H](C)NC(=O)[C@@H](NC(=O)[C@H](Cc1c[nH]cn1)NC(=O)[C@H](CC(C)C)NC(=O)[C@@H](NC(=O)[C@@H](NC(=O)[C@H](CCCCN)NC(=O)[C@H](C)NC(=O)[C@H](C)NC(=O)[C@H](CO)NC(=O)[C@H](CCCCN)NC(=O)[C@H](Cc1ccccc1)NC(=O)[C@@H](NC(=O)[C@H](CCCCN)NC(=O)[C@H](CC(C)C)NC(=O)[C@H](Cc1ccccc1)NC(=O)[C@H](CO)NC(=O)[C@H](CCCCN)NC(=O)[C@H](Cc1c[nH]c2ccccc12)NC(=O)[C@H](CCCCN)NC(C)=O)[C@@H](C)O)[C@@H](C)O)C(C)C)[C@@H](C)O)C(=O)N[C@@H](CO)C(=O)N[C@@H](CO)C(N)=O
AUC(0-t) (BALB/c mice, plasma; intraperitoneal, 0.1 mg per animal): 582 ng·h/mL

C=CC(=O)Nc1cc(Nc2nccc(Nc3cc(Cl)c(F)cc3C(C)(C)O)n2)c(OC)cc1N1CC[C@@H](N(C)C)C1
patients with amylase increased (human patients; oral, 100 mg, treatment-emergent adverse events): 22.2%

CCCCCOc1ccc(-c2ccc(-c3ccc(C(=O)N[C@H]4C[C@@H](O)[C@@H](OCC[N+](C)(C)C)NC(=O)[C@@H]5[C@@H](O)[C@@H](C)CN5C(=O)[C@H]([C@@H](C)O)NC(=O)[C@H]([C@H](O)[C@@H](O)c5ccc(O)cc5)NC(=O)[C@@H]5C[C@@H](O)CN5C(=O)[C@H]([C@@H](C)O)NC4=O)cc3)cc2)cc1
aspartate aminotransferase (adult ICU patients, mITT, serum; dose not given, Baseline): 28.2 U/L

Excerpt of the above:
CC[C@H](C)[C@H](NC(=O)[C@H](CCCCN)NC(=O)[C@H](CCC(=O)O)NC(=O)[C@H](CCCCN)NC(=O)[C@H](CO)NC(=O)[C@H](CCCCN)NC(=O)[C@H](CCCNC(=N)N)NC(=O)[C@H](Cc1ccccc1)NC(=O)[C@H](Cc1ccccc1)NC(=O)[C@H](CC(=O)O)NC(=O)CNC(=O)[C@H](CC(C)C)NC(=O)[C@@H](N)CC(C)C)C(=O)NCC(=O)N[C@@H](CCCCN)C(=O)N[C@@H](CCC(=O)O)C(=O)N[C@@H](Cc1ccccc1)C(=O)N[C@@H](CCCCN)C(=O)N[C@@H](CCCNC(=N)N)C(=O)N[C@H](C(=O)N[C@H](C(=O)N[C@@H](CCC(N)=O)C(=O)N[C@@H](CCCNC(=N)N)C(=O)N[C@H](C(=O)N[C@@H](CCCCN)C(=O)N[C@@H](CC(=O)O)C(=O)N[C@@H](Cc1ccccc1)C(=O)N[C@@H](CC(C)C)C(=O)N[C@@H](CCCNC(=N)N)C(=O)N[C@@H](CC(N)=O)C(=O)N[C@@H](CC(C)C)C(=O)N[C@H](C(=O)N1CCC[C@H]1C(=O)N[C@@H](CCCNC(=N)N)C(=O)N[C@H](C(=O)N[C@@H](CCC(=O)O)C(=O)N[C@@H](CO)C(=O)O)[C@@H](C)O)C(C)C)[C@@H](C)CC)C(C)C)[C@@H](C)CC
remaining intact peptide (LC-MS; buffer with trypsin; 40 µM, 20 min, pH 7.5, 37 °C; baseline: 0 h): 8.7% and 8.81% and 10.8%

O=C(Nc1ccccc1)C1CCN(C(=O)Oc2cccnc2)CC1
change in Colors score (psychotropic effects VAS; healthy women; 20 mg; baseline: pre-dose baseline, direction not given): 0.1
